Assay results from different studies.
Compare with care: the assays were run in different laboratories. ± marks the error that the study gave.
Cell line: A549

Structure (SMILES) = COc1ccc(/C=C/c2nc3ccc([N+](=O)[O-])cc3nc2/C=C/c2ccc(OC)cc2)cc1; test = cell growth or viability, MTT; setting = 72 h; IC50 = > 100 µM
Structure (SMILES) = CC(=O)[O][Pt]([NH2])([Cl])([Cl])([NH]C1CCCCC1)[O]C(C)=O; test = cell viability, MTT; setting = 96 h; IC50 = 6.4 ± 0.4 µM
Structure (SMILES) = CCOC(=O)c1ccc2c(c1)n(CC)c[n+]2CC; test = cell growth or viability, crystal violet; setting = 72 h; IC50 = 50.8 µM
Structure (SMILES) = Cc1cccc(C(=O)C2C(c3c(C)cc(C)cc3C)CN(C)C23C(=O)Nc2ccccc23)c1 (stereo not drawn); test = cell growth or viability, MTT; IC50 = < 10 µM
Structure (SMILES) = COc1ccc2[nH]c(C(=O)Nc3cccc(-c4nc(N)[nH]c4C(=O)c4ccccc4)c3)cc2c1; test = cell growth or viability, resazurin; setting = 72 h; IC50 = 21.1 µM
Structure (SMILES) = Clc1cccc(/C=C/c2nc3ccc(Br)cc3nc2/C=C/c2cccc(Cl)c2)c1; test = cell growth or viability, MTT; setting = 72 h; IC50 = 42.4 µM
Structure (SMILES) = CC(C=NN=C(N)[S-])=NN=C(N)[S-].O=[N+]([O-])[O-].[Co+3].c1c[nH]cn1.c1c[nH]cn1; test = cell viability, MTT; setting = 24 h then 48 h recovery, normoxia; IC50 = ~4.2 µM
Structure (SMILES) = O=[N+]([O-])c1ccc(-n2nc(-c3cccs3)sc2=NN=C2CCCc3ccccc32)cc1; test = cell growth or viability; IC50 = 48.1 µM
Structure (SMILES) = CC(=NNC(N)=S)C(C)=NNC(N)=S; test = cell viability, MTT; setting = 24 h hypoxic, 48 h normoxic, hypoxic treatment; IC50 = 17.5 ± 2.7 µM
Structure (SMILES) = N.N.O=C([O-])C1(C(=O)[O-])CCC1.[Pt+2]; test = cell viability, MTT; setting = 4 h, with: cimetidine 3 mmol/L; IC50 = 164 ± 16.5 µM
Structure (SMILES) = Cc1ccc(C(=O)C2C(c3c(C)cc(C)cc3C)CN(C)C23C(=O)Nc2ccccc23)cc1 (stereo not drawn); test = cell growth or viability, MTT; IC50 = < 10 µM
Structure (SMILES) = C=CCc1ccc(O)c(-c2ccc(O)c(CC=C)c2)c1; test = cell proliferation, MTS; setting = 24 h, with: temozolomide 250 µM; IC50 = 12.6 µM
Structure (SMILES) = CC(=NN=C(N)[S-])C(C)=NN=C(N)[S-].O=[N+]([O-])[O-].[Co+3].c1c[nH]cn1.c1c[nH]cn1; test = cell viability, MTT; setting = 24 h then 48 h recovery, normoxia; IC50 = > 500 µM
Structure (SMILES) = Brc1ccc2nc(/C=C/c3ccco3)c(/C=C/c3ccco3)nc2c1; test = cell growth or viability, MTT; setting = 72 h; IC50 = 54.9 µM
Structure (SMILES) = C/C(=N/NC(=O)c1cn(-c2ccccc2)nc1-c1ccc(C)cc1)c1c(O)cc(C)oc1=O; test = cell growth or viability, MTT; setting = 48 h; IC50 = 97 µM
Structure (SMILES) = COc1ccc(CNC(=O)Cn2cc(COc3ncnc4[nH]cnc34)nn2)cc1; test = cell growth or viability, MTT; IC50 = 14.2 µM
Structure (SMILES) = Cc1cc(C)c(C2CN(C)C3(C(=O)Nc4ccccc43)C2C(=O)c2ccc(Br)cc2)c(C)c1 (stereo not drawn); test = cell growth or viability, MTT; setting = 24 h; IC50 = 33.5 µM
Structure (SMILES) = COc1ccc(/C=C\c2cc(OC)c(OC)c(OC)c2)cc1O; IC50 = 0.28 ± 0.05 µM
Structure (SMILES) = Cc1cc(C)c(C2C3CCCN3C3(C(=O)Nc4ccccc43)C2C(=O)c2ccccc2)c(C)c1 (stereo not drawn); test = cell growth or viability, MTT; setting = 48 h; IC50 = 10.8 µM
Structure (SMILES) = CN(C)C/C=C/C(=O)Nc1cc2c(Nc3ccc(F)c(Cl)c3)ncnc2cc1O[C@H]1CCOC1; test = cell growth or viability, MTT; setting = 48 h; IC50 = 8.09 µM
Structure (SMILES) = Cc1cc(C)c(C2C3CCCN3C3(C(=O)Nc4ccccc43)C2C(=O)c2cccc(Cl)c2)c(C)c1 (stereo not drawn); test = cell growth or viability, MTT; setting = 48 h; IC50 = 1.2 µM
Structure (SMILES) = Cc1cncc(NC(=O)Cn2cc(COc3ncnc4[nH]cnc34)nn2)c1; test = cell growth or viability, MTT; IC50 = 5.2 µM
Structure (SMILES) = Nc1nc(-c2cc(NC(=O)c3cc4cc(Br)ccc4[nH]3)ccc2Cl)c(C(=O)c2ccccc2)[nH]1; test = cell growth or viability, resazurin; setting = 72 h; IC50 = 20.3 µM
Structure (SMILES) = COc1ccccc1/C=C/c1nc2ccc([N+](=O)[O-])cc2nc1/C=C/c1ccccc1OC; test = cell growth or viability, MTT; setting = 72 h; IC50 = > 100 µM

For quick reference, copied from above:
Structure (SMILES) = Cc1cncc(NC(=O)Cn2cc(COc3ncnc4[nH]cnc34)nn2)c1; test = cell growth or viability, MTT; IC50 = 5.2 µM
Structure (SMILES) = Cc1cc(C)c(C2C3CCCN3C3(C(=O)Nc4ccccc43)C2C(=O)c2ccccc2)c(C)c1 (stereo not drawn); test = cell growth or viability, MTT; setting = 48 h; IC50 = 10.8 µM
Structure (SMILES) = C=CCc1ccc(O)c(-c2ccc(O)c(CC=C)c2)c1; test = cell proliferation, MTS; setting = 24 h, with: temozolomide 250 µM; IC50 = 12.6 µM
